Results from different studies.
Each line is one published result; not all experiments were run side by side. ± marks the error that the study gave.

SMILES | target | assay | test system | conditions | how to read | endpoint | result
CC[C@H](C)[C@H](NC(=O)[C@H](CCCNC(=N)N)NC(=O)[C@H](CCCCN)NC(=O)[C@@H](NC(=O)[C@H](C)NC(=O)[C@H](CCCNC(=N)N)NC(=O)[C@H](CCC(N)=O)NC(=O)[C@H](CO)NC(=O)[C@H](CCCCN)NC(=O)[C@H](CC(N)=O)NC(=O)[C@@H](N)CCCNC(=N)N)[C@@H](C)O)C(=O)N[C@@H](COP(=O)(O)O)C(=O)N[C@@H](Cc1c[nH]cn1)C(=O)N[C@@H](CCSC)C(=O)N1CCC[C@H]1C(=O)N[C@@H](CO)C(=O)N[C@@H](CCCNC(=N)N)C(=O)N1CCC[C@H]1C(=O)N[C@@H](CCC(=O)O)C(=O)N[C@@H](CC(C)C)C(=O)N[C@@H](CO)C(=O)N[C@@H](C)C(=O)N[C@H](C(=O)N[C@@H](C)C(=O)N[C@H](C(=O)N[C@@H](CC(=O)O)C(=O)N[C@@H](CC(C)C)C(=O)N[C@@H](CCCNC(=N)N)C(=O)N[C@@H](CCCCN)C(=O)N[C@@H](CC(=O)O)C(=O)N[C@@H](CCCCN)C(=O)N[C@@H](C)C(=O)N[C@@H](CCCCN)C(=O)N[C@@H](COP(=O)(O)O)C(=O)N[C@@H](CS)C(=O)OC)[C@@H](C)O)C(C)C | 14-3-3 protein zeta/delta (YWHAZ, Homo sapiens, UniProt P63104) | binding | – | – | – | koff | 8.42 s⁻¹
CC(C)CC(=N)NCCC[C@H](N)C(=O)O | Nitric oxide synthase, inducible, heme domain (Nos2, Mus musculus, UniProt P29477) | heme content, inactivator, HPLC and LC/MS | purified enzyme | – | – | heme loss | < 5%
Clc1ccc(-c2n[nH]cc2CN2CCN(C34CC(C3)C4)CC2)cc1 | 5-hydroxytryptamine receptor 2B (HTR2B, Homo sapiens, UniProt P41595) | β-arrestin recruitment, agonist | – | – | – | Emax | 103%
CC(C)C[C@H](NC(=O)[C@@H]1CCCN1C(=O)[C@H](CC(=O)O)NC(=O)[C@H](CO)NC(=O)[C@H](C)NC(=O)c1cc(-c2ccccc2)nc2ccccc12)C(=O)NCC(=O)N[C@H](C(=O)N[C@H](C(=O)N[C@@H](CCCNC(=N)N)C(=O)NCC(=O)N[C@@H](CCCNC(=N)N)C(=O)N[C@@H](C)C(=O)N[C@@H](CCCNC(=N)N)C(=O)N[C@H](CCCNC(=O)CCOCCOCCOCCOCCNC(=O)CCCC[C@@H]1SC[C@@H]2NC(=O)N[C@@H]21)C(N)=O)C(C)C)C(C)C | antibody 12CA5 | biolayer interferometry | – | concentration not given, 7.8 to 1000 nM analyte | – | binding | no binding
CCCC[C@H](NC(=O)[C@@H]1CSSC[C@H](NC(=O)[C@@H](NC(C)=O)[C@@H](C)CC)C(=O)N[C@@H](C(C)C)C(=O)N[C@@H](Cc2cn(C)c3ccccc23)C(=O)N[C@@H](CCC(N)=O)C(=O)N[C@@H](CC(=O)O)C(=O)N[C@@H](Cc2c[nH]c3ccccc23)C(=O)N(C)CC(=O)N[C@@H](C)C(=O)N[C@@H](Cc2c[nH]cn2)C(=O)N[C@@H](CCCNC(=N)N)C(=O)N1)C(N)=O | Complement C3, C3b fragment (Homo sapiens, UniProt P01024) | SPR | – | 25 °C | baseline: [Trp(Me)4]-Ac-compstatin | relative KD | 2.7
c1ccc2c(NCCCCCCCCCCNc3ccnc4ccccc34)ccnc2c1 | Alpha-2A adrenergic receptor (ADRA2A, Homo sapiens, UniProt P08913, W114A) | – | – | – | baseline: W99A over wild type | affinity increase | 1.7 fold
CC[C@H](C)[C@H](NC(=O)[C@H](CCCNC(=N)N)NC(=O)NC[C@H](CCC(N)=O)NC(=O)NC[C@@H](NC(=O)NC[C@H](CCCNC(=N)N)NC(=O)NC[C@H](Cc1ccc2ccccc2c1)NC(=O)[C@H](CCCCN)NC(=O)[C@H](CCC(=O)O)NC(C)=O)C(c1ccccc1)c1ccccc1)C(=O)N[C@@H](C)C(N)=O | Histone chaperone ASF1A (Homo sapiens, UniProt Q9Y294) | isothermal titration calorimetry | – | pH 7.5, 20 °C | – | -TΔS | -3 ± 0.5 kcal/mol
CCCCCCCC/C=C\CCCCCCCC(=O)NC(CO)CO | Glucose-dependent insulinotropic receptor (GPR119, Homo sapiens, UniProt Q8TDV5) | agonist, β-arrestin recruitment | – | – | baseline: oleoylethanolamide | maximal activation | ~2 fold
OC[C@H]1O[C@@H](Oc2ccc(OCCc3cn([C@H]4[C@H](O)[C@@H](O)[C@H](c5cn([C@H]6[C@H](O)[C@@H](O)[C@H](n7cc(CCOc8ccc(O[C@@H]9O[C@H](CO)[C@H](O)[C@H](O)[C@H]9O)cc8)nn7)O[C@@H]6CO)nn5)O[C@@H]4CO)nn3)cc2)[C@H](O)[C@@H](O)[C@H]1O | PA-I galactophilic lectin (lecA, Pseudomonas aeruginosa, UniProt Q05097) | isothermal titration calorimetry | – | 25 °C | – | ΔG | -10.2 ± 0.3 kcal/mol
O=C(NCC1CO1)Oc1ccc([N+](=O)[O-])cc1 (racemic) | Epoxide hydrolase 1 (Ephx1, Rattus norvegicus, UniProt P07687) | substrate, absorbance | – | 50 µM, pH 9.0, 37 °C, rat enzyme | – | signal to background ratio | 1
O=C1Nc2ccc(Br)cc2/C1=N/N=C/c1cccc(OCc2ccccc2)c1 | Amine oxidase [flavin-containing] A (MAOA, Homo sapiens, UniProt P21397) | enzyme activity, inhibitor | – | 10 µM | – | remaining activity | 81.5%

Excerpt of the above:
SMILES | target | assay | test system | conditions | how to read | endpoint | result
CC(C)C[C@H](NC(=O)[C@@H]1CCCN1C(=O)[C@H](CC(=O)O)NC(=O)[C@H](CO)NC(=O)[C@H](C)NC(=O)c1cc(-c2ccccc2)nc2ccccc12)C(=O)NCC(=O)N[C@H](C(=O)N[C@H](C(=O)N[C@@H](CCCNC(=N)N)C(=O)NCC(=O)N[C@@H](CCCNC(=N)N)C(=O)N[C@@H](C)C(=O)N[C@@H](CCCNC(=N)N)C(=O)N[C@H](CCCNC(=O)CCOCCOCCOCCOCCNC(=O)CCCC[C@@H]1SC[C@@H]2NC(=O)N[C@@H]21)C(N)=O)C(C)C)C(C)C | antibody 12CA5 | biolayer interferometry | – | concentration not given, 7.8 to 1000 nM analyte | – | binding | no binding
CC[C@H](C)[C@H](NC(=O)[C@H](CCCNC(=N)N)NC(=O)NC[C@H](CCC(N)=O)NC(=O)NC[C@@H](NC(=O)NC[C@H](CCCNC(=N)N)NC(=O)NC[C@H](Cc1ccc2ccccc2c1)NC(=O)[C@H](CCCCN)NC(=O)[C@H](CCC(=O)O)NC(C)=O)C(c1ccccc1)c1ccccc1)C(=O)N[C@@H](C)C(N)=O | Histone chaperone ASF1A (Homo sapiens, UniProt Q9Y294) | isothermal titration calorimetry | – | pH 7.5, 20 °C | – | -TΔS | -3 ± 0.5 kcal/mol
